Measured values of several laboratories.
Each line is one published result; not all experiments were run side by side. Numbers after ± are the reported error.
Nuclear receptor subfamily 2 group C member 2 ligand-binding domain: Nuclear receptor subfamily 2 group C member 2, ligand-binding domain (Homo sapiens, UniProt P49116)
Sequence of UniProt P49116 (whole entry, looked up): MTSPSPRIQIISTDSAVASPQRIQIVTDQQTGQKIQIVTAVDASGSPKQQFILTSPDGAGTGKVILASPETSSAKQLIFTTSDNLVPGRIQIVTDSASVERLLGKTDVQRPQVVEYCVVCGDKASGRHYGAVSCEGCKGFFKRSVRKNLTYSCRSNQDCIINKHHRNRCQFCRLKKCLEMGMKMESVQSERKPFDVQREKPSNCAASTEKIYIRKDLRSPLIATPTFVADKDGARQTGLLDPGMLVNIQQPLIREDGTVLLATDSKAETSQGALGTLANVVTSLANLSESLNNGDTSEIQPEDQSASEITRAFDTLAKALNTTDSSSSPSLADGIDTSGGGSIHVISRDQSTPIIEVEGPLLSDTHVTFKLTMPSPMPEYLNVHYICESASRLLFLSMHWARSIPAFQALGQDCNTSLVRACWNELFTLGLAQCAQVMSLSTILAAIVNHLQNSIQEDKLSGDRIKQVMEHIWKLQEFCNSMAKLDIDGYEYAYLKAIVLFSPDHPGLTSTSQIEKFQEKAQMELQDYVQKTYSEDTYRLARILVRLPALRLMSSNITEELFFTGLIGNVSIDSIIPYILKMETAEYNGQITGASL
Sequence of UniProt Q16774 (whole entry, unmodified, looked up): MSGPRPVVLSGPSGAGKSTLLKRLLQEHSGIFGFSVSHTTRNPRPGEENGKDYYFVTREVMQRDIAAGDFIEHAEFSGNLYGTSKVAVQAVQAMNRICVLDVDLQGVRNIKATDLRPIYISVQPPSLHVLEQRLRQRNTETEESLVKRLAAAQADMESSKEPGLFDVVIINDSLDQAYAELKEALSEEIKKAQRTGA
Sequence of UniProt P46100 (whole entry, unmodified, looked up): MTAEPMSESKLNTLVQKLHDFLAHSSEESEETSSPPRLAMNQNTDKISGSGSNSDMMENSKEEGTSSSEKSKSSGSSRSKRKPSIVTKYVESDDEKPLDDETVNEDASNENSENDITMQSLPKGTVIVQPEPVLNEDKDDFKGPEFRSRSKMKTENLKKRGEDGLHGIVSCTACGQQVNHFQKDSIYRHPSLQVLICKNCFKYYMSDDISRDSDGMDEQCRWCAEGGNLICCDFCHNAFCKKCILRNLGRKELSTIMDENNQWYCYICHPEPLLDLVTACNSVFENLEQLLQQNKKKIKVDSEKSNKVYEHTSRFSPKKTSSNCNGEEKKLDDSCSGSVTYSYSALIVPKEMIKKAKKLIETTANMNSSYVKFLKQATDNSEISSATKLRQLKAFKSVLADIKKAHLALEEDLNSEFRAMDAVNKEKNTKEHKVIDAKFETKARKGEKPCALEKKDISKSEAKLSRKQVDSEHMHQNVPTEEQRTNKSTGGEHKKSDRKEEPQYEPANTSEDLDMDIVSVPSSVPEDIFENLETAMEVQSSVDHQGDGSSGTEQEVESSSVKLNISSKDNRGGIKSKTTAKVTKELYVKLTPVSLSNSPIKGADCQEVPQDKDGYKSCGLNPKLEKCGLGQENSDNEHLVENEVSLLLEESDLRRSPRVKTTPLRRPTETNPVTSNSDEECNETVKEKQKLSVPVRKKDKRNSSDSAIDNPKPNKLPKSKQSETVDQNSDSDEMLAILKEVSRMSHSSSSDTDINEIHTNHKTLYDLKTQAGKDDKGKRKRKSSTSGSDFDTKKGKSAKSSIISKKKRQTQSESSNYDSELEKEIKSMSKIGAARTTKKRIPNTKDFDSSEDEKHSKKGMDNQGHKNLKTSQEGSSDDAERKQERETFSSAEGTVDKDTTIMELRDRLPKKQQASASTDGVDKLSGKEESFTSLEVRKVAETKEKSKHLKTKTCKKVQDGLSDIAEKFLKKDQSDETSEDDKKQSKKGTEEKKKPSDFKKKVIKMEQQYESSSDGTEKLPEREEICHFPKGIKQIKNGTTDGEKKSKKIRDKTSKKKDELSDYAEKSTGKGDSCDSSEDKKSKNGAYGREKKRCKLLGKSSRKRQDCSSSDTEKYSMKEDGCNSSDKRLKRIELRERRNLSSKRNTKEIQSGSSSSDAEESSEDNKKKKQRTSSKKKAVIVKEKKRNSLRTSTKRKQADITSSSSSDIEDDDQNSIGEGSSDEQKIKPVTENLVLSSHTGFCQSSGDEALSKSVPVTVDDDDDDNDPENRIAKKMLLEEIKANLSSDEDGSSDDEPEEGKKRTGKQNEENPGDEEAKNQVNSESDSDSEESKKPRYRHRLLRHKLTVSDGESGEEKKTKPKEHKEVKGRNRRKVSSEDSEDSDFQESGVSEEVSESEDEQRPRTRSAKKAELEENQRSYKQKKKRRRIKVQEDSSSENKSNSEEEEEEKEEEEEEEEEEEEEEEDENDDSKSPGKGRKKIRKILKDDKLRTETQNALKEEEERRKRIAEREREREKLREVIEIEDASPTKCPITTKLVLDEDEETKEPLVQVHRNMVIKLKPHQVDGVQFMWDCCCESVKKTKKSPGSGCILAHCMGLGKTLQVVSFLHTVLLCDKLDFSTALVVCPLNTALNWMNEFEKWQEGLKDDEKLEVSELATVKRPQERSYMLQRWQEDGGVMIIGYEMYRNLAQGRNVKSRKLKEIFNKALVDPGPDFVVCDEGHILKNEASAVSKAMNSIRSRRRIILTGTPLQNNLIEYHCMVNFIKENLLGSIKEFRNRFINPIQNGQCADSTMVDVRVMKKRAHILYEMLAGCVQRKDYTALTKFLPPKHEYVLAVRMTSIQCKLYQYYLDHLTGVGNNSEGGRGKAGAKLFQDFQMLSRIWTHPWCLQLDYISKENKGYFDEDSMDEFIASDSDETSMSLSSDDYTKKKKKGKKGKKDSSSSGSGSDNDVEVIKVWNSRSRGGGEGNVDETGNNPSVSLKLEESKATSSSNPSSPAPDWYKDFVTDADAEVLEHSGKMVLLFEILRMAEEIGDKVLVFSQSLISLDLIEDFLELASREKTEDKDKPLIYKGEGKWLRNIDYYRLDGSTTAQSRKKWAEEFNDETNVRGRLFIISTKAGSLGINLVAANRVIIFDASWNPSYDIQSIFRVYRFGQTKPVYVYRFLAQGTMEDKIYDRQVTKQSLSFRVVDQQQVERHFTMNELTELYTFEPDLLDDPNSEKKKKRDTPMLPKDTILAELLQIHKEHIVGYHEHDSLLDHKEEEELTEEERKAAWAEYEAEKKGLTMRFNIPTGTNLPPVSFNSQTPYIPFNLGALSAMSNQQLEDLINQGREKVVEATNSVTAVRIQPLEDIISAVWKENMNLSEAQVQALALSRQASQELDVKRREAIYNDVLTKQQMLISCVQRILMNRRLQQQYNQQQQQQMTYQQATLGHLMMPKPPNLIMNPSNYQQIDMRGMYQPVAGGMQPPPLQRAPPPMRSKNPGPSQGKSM
Sequence of UniProt P05164 (whole entry, looked up): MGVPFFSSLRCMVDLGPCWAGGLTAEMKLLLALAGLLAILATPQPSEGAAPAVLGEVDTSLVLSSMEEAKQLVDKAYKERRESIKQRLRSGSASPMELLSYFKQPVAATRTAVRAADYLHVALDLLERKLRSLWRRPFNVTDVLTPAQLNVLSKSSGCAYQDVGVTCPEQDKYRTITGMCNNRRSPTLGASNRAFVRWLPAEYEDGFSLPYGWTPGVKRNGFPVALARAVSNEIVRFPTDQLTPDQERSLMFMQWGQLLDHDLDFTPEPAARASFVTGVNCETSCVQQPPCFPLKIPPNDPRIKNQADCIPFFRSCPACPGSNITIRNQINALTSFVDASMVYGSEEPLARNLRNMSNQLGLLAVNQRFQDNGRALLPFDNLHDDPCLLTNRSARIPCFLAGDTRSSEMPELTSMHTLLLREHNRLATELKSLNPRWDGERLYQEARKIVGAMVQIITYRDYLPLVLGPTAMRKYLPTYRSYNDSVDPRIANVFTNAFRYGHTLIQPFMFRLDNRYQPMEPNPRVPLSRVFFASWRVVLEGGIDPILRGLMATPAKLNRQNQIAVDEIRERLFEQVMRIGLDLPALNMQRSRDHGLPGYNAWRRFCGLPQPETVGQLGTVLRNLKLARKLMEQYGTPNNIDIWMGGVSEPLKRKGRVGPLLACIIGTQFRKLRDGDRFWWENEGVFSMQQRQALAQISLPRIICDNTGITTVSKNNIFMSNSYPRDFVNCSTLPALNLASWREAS
Sequence of UniProt P35606 (whole entry, looked up): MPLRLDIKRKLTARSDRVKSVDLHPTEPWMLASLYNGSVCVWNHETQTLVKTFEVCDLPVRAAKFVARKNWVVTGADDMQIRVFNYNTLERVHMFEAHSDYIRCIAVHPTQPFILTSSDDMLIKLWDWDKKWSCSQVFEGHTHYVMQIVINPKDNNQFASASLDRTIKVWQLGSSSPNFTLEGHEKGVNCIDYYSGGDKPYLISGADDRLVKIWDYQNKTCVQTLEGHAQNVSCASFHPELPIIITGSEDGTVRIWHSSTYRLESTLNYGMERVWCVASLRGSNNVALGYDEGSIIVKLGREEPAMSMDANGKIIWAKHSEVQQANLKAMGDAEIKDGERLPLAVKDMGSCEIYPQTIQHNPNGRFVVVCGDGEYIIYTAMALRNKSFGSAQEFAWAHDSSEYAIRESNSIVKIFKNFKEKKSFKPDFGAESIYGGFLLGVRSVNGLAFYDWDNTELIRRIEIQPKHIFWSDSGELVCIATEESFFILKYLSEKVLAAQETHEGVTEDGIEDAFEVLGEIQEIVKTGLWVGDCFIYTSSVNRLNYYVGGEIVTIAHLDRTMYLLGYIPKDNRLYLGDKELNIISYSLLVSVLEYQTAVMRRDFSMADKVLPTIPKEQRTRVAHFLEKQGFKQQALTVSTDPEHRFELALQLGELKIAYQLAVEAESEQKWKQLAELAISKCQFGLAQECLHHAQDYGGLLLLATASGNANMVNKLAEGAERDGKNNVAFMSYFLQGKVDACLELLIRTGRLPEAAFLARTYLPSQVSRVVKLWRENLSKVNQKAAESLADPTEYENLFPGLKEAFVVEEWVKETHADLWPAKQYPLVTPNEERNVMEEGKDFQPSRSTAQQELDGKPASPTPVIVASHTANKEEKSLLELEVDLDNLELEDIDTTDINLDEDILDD

Nc1c(Br)cc(Br)cc1CN[C@H]1CC[C@H](O)CC1 — activation (SCN1A (Homo sapiens, UniProt P35498); ion current; 3 µM, 0.08333 h): -182%
CC(Oc1ccccc1)C(=O)NCc1ccccn1 (stereo not drawn) — log fold enrichment (Coatomer subunit beta', WD repeat domain (Homo sapiens, UniProt P35606); binding, affinity selection mass spectrometry; baseline: other proteins in batch): -0.144
COc1cc(Nc2ncc3c(n2)-c2ccc(Cl)cc2C(c2c(F)cccc2OC)=NC3)ccc1C(=O)O — remaining activity (BLK; kinase activity; 1 µM): 8%
C[C@H](N)C(=O)N[C@@H](C)C(=O)N[C@H](C(=O)N[C@@H](CCCCN)C(=O)N[C@@H](CCC(N)=O)C(=O)N[C@H](C(=O)N[C@@H](C)C(=O)N[C@@H](CCCNC(=N)N)C(=O)N[C@@H](CCCCN)C(=O)N[C@@H](CO)C(=O)O)[C@@H](C)O)[C@@H](C)O — binding entropy (Transcriptional regulator ATRX (ATRX, Homo sapiens, UniProt P46100, F284Y/K251R); isothermal titration calorimetry; concentration not given, pH 7.5, 25.0 °C): 2.84 cal/mol/K
CNCC[C@@H](Oc1ccccc1C)c1ccccc1 — koff (Nuclear receptor subfamily 2 group C member 2 ligand-binding domain; SPR imaging; 600 nM): 3.15e-07 s⁻¹
Oc1ccc(/C=C/c2cc(O)cc(O)c2)cc1 — ΔH of exothermic site (O-methyltransferase (Sorghum bicolor, UniProt A0A1B6PFV1); two-sets-of-sites model, added: SFG): -5.48 kcal/mol
Cc1cc(-c2ccnc3[nH]cc(F)c23)cc(F)c1[C@@]1(O)[C@H](C)CN(C(=O)CN)C[C@@H]1C — inhibition (AKT1 and AKT3; ATP probe binding, KiNativ, refers to: Lys2 site; HEK293T cell lysate; 1 µM): 7%
N[C@@H](Cc1ccccc1)C(=O)O — ΔG (PAL1 (Petroselinum crispum, UniProt P24481, Y110F); binding, ITC): -6.4 kcal/mol
CCN(CC)CCCC(C)Nc1ccnc2cc(Cl)ccc12 (stereo not drawn) — metabolic activity (COS-7; WST-8; 100 µM, 24 h, 0.1% DMSO, unit not given; baseline: control): 0.49 ± 0.4
O=C(Nc1ccc(CN2CCOCC2)c(C(F)(F)F)c1)c1ccc(C#Cc2cccc3cnccc23)cn1 — activity (NUDT1 (Homo sapiens, UniProt P36639); activator, ARGO probe luminescence; 10 µM, 1 h preincubation; baseline: without activator): 1000 ± 100%
O=c1nc(SCc2cc(F)cc(C(F)(F)F)c2)nc(SCc2csc3ccc(Cl)cc23)[nH]1 — mean linear DNA (TOP2A (Homo sapiens, UniProt P11388); DNA cleavage; 15.6 µM): 2.21%
Nc1ncnc2c1ncn2C(C=O)OC(C=O)CO (stereo not drawn) — binding (SMN, human; inhibitor, co-immunoprecipitation, western blot, refers to: SMN-GFP-RMET interaction; HEK293T expressing GFP-RMET; 25 µM, 3 days): decreased
Cc1onc(-c2ccccc2)c1-c1ccc(S(N)(=O)=O)cc1 — necrotic cells (COS-7; 50 µM, 24 h, 0.1% DMSO, unit not given; baseline: vehicle control): 0.51 ± 0.08
NC/C(=C\F)COc1cccc(Cn2c(=S)[nH]c(=O)c3[nH]cnc32)c1 — H2O2 concentration (Myeloperoxidase (MPO, Homo sapiens, UniProt P05164); H2O2 consumption, inhibitor, H2O2 electrode; 0.25 µM, 0.2 s): -0.329 µM
CC(C)C[C@H](NC(=O)C[C@H](O)[C@H](CC(C)C)NC(=O)[C@H](Cc1c[nH]cn1)NC(=O)CNC(=O)[C@@H](NC(=O)[C@H](C)NC(=O)[C@H](Cc1c[nH]c2ccccc12)NC(=O)[C@H](CCC(N)=O)NC(=O)[C@@H](Cc1ccccc1)NC(=O)COCCOCCNC(=O)CCC(C(=O)O)N1CCN(CC(=O)O)CCN(CC(=O)O)CCN(CC(=O)O)CC1)C(C)C)C(N)=O (stereo partly drawn) [lutetium-177 labelled] — tissue uptake (BALB/c nu/nu mice, PC-3 xenograft tumour; 500 pmol, 1 h, added: PA 300 µg): 8.2 ± 1.4 %ID/g
CC(=O)c1c(C)cc2cc(O)cc(O[C@@H]3O[C@H](CO)[C@@H](O)[C@H](O)[C@H]3O)c2c1O — cell viability (HepaRG co-cultured with HK-2; MTT; 16.67 µM, 48 h; baseline: untreated control): 113 ± 3.64%
Oc1ccccc1-c1n[nH]cc1-c1ccnc2ccccc12 — log2 fold change (Serine/threonine-protein kinase CBK1 (CBK1, Candida albicans, UniProt Q5AP53); kinase binding, MIB/MS competition; Candida albicans lysate; 10 µM; baseline: DMSO, negative = stronger binding): 0.05
CCCC[C@H]1CN(c2cccc(Cl)c2)C(=O)CN1Cc1cncn1Cc1ccc(Br)cc1 — IC50 (Cryptococcus neoformans farnesyltransferase; enzyme activity, inhibitor, fluorescence; added: 1 µM FPP, 0.5 µM dansylated peptide): 1.1 ± 0.78 µM
Nc1nc2c(ncn2[C@@H]2O[C@H](COP(=O)(O)OP(=O)(O)O)[C@@H](O)[C@H]2O)c(=O)[nH]1 — ΔH (GUK1 (Homo sapiens, UniProt Q16774, S13A); binding, ITC): -6.95 ± 0.25 kcal/mol
Cc1cc(O)c2c(c1)C(=O)c1cccc(O)c1C2=O — cell viability (HepaRG co-cultured with HK-2; MTT; 266.67 µM, 48 h; baseline: untreated control): 35.8 ± 7.15%
CCCCN1CCCCC1C(=O)Nc1c(C)cccc1C (stereo not drawn) — koff (Nuclear receptor subfamily 2 group C member 2 ligand-binding domain; SPR imaging; 600 nM): 4.59e-07 s⁻¹

For quick reference, copied from above:
CCCC[C@H]1CN(c2cccc(Cl)c2)C(=O)CN1Cc1cncn1Cc1ccc(Br)cc1 — IC50 (Cryptococcus neoformans farnesyltransferase; enzyme activity, inhibitor, fluorescence; added: 1 µM FPP, 0.5 µM dansylated peptide): 1.1 ± 0.78 µM
Nc1nc2c(ncn2[C@@H]2O[C@H](COP(=O)(O)OP(=O)(O)O)[C@@H](O)[C@H]2O)c(=O)[nH]1 — ΔH (GUK1 (Homo sapiens, UniProt Q16774, S13A); binding, ITC): -6.95 ± 0.25 kcal/mol
